Assay results gathered from unrelated publications.
Each numbered part is a random draw from the data of one study; scales do not carry over between parts. Several values in a cell are separate wells, animals, samples, runs or records.
Sequence of UniProt P10721 (whole entry, unmodified, looked up): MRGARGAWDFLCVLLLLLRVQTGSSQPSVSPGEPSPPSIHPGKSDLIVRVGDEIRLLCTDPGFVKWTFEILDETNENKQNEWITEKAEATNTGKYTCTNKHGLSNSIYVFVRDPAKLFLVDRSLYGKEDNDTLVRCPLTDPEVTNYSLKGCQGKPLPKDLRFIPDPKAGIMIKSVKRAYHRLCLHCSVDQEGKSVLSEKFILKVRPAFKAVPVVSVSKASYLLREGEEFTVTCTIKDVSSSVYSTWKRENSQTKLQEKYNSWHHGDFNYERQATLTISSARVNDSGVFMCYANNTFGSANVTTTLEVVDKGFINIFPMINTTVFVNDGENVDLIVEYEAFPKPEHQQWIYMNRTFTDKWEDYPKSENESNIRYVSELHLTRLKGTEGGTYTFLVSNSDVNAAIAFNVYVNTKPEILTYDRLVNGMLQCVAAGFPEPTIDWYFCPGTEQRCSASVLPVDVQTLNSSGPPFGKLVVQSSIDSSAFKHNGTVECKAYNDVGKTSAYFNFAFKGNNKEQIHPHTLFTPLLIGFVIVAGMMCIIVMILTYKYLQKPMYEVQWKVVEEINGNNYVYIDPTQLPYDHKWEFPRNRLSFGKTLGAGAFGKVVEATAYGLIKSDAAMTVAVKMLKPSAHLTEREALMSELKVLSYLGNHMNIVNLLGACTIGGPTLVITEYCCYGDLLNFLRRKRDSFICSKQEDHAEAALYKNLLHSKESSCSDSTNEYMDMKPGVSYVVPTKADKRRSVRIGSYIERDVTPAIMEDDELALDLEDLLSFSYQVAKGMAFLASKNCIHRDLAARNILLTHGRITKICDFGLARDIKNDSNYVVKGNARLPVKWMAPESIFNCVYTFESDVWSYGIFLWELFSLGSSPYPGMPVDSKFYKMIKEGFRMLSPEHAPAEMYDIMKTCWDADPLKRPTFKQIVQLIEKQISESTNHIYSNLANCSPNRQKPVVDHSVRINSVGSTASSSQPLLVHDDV
Sequence of UniProt O14733 (whole entry, looked up): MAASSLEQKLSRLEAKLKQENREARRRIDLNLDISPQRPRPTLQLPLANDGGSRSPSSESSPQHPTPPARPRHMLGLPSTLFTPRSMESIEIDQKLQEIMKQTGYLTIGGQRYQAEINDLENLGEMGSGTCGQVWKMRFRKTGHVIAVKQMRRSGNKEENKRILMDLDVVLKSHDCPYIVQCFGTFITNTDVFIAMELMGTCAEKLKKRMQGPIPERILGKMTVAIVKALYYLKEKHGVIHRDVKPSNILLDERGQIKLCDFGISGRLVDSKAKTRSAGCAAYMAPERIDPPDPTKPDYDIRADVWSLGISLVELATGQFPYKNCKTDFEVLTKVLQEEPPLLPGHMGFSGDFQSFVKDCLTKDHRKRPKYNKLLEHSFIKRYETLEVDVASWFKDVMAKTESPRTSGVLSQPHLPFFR
Sequence of UniProt Q9H2X6 (whole entry, looked up): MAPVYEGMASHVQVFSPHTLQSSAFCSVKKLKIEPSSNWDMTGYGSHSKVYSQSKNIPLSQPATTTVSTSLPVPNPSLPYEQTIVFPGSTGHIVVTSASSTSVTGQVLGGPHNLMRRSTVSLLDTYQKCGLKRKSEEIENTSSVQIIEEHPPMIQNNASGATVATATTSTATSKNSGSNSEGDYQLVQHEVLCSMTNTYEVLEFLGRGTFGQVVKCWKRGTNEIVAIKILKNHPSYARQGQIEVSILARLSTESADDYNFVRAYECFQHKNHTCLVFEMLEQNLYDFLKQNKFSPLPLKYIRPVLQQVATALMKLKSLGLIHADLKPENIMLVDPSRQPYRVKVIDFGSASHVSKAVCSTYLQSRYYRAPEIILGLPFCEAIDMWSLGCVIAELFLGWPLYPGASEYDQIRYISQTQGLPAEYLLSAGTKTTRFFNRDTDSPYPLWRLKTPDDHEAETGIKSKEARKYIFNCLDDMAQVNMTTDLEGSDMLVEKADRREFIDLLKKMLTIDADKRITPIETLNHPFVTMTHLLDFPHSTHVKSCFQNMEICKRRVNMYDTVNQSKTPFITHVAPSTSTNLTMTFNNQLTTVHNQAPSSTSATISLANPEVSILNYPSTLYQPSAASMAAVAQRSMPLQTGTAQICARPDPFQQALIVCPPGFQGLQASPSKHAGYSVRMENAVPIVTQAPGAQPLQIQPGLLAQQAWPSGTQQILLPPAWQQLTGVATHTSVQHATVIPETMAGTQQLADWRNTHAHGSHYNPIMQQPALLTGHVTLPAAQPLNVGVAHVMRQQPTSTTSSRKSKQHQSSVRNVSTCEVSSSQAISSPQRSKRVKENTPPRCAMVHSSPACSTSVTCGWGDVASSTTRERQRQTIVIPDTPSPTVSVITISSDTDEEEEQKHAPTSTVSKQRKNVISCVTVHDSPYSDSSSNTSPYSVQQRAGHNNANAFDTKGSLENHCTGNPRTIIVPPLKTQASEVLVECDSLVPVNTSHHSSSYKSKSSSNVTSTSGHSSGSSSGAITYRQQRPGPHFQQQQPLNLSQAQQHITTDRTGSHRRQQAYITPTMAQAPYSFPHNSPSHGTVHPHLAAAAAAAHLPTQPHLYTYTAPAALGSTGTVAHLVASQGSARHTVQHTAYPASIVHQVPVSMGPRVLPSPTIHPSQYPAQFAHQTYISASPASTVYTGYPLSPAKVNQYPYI
Sequence of UniProt P22455 (whole entry, looked up): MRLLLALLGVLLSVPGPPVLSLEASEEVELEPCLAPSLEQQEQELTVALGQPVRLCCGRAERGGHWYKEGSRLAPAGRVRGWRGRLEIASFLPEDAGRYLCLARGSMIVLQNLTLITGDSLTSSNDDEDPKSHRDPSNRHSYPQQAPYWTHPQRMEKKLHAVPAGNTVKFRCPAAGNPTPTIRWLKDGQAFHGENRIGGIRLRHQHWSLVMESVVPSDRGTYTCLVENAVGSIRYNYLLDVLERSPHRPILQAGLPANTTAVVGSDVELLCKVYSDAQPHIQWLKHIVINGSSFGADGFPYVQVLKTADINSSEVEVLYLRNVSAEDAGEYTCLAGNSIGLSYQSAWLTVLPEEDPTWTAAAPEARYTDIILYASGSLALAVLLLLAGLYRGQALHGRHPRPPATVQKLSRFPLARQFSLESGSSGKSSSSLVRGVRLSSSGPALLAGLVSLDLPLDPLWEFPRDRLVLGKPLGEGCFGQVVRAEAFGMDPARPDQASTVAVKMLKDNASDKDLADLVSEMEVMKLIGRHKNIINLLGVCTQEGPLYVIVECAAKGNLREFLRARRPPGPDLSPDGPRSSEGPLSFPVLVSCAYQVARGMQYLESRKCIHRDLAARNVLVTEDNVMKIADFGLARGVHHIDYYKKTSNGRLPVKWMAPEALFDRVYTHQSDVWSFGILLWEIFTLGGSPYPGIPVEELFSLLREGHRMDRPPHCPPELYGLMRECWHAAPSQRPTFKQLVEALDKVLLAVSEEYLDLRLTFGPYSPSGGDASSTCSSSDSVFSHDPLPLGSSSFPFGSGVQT
Sequence of UniProt Q13188 (whole entry, looked up): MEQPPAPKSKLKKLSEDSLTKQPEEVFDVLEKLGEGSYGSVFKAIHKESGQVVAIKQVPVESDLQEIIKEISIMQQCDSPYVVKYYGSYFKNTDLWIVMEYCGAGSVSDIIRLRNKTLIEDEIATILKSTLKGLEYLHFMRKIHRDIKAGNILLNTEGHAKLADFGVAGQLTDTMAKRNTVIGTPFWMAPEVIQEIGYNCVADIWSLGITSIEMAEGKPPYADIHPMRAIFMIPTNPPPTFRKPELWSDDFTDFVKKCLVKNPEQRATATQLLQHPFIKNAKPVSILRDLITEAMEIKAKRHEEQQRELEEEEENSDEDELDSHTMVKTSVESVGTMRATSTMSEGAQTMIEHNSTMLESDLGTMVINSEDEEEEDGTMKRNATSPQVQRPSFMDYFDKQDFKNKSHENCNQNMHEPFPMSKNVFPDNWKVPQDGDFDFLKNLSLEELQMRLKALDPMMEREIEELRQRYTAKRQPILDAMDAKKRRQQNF
Sequence of UniProt Q13177 (whole entry, looked up): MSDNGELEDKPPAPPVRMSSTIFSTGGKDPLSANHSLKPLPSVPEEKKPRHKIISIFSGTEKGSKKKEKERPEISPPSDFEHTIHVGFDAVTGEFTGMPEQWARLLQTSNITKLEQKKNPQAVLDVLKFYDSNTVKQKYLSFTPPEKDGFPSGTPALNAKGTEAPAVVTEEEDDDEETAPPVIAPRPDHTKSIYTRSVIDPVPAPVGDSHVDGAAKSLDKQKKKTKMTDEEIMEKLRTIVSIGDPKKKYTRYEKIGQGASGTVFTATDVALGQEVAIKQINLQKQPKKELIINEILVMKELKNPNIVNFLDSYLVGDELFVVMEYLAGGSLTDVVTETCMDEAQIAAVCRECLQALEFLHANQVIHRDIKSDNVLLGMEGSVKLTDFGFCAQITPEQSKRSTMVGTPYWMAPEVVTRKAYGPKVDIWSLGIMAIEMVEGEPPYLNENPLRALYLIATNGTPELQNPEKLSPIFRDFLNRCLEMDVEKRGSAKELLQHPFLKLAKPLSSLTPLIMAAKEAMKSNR
Sequence of UniProt Q13470 (whole entry, looked up): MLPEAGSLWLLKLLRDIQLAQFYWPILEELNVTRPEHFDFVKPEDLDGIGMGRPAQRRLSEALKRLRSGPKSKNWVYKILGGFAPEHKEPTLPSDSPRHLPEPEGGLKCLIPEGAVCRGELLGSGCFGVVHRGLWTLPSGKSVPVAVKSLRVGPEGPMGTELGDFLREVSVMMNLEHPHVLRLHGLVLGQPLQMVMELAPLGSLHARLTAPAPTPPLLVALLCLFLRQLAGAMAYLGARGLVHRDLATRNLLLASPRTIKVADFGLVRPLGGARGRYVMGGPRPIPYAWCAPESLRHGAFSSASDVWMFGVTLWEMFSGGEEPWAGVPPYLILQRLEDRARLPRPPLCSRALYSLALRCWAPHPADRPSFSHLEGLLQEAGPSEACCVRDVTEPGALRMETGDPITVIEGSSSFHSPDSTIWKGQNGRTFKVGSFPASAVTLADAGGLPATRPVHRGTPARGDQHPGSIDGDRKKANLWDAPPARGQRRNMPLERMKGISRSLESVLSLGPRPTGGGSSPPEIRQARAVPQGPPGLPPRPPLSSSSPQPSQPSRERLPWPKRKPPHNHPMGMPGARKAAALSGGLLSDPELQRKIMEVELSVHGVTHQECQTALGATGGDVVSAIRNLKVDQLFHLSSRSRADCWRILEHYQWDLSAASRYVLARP

Set 1
Organism: Sarcocystis neurona
Read-out: parasite growth
Concentration: 10 µM
Notes: secondary screen
Endpoint: inhibition
O=C1c2c(O)ccc(O)c2C(=O)c2c(NCCNCCO)ccc(NCCNCCO)c21: 44.7%
Cc1c(O)cccc1C(=O)N[C@@H](CSc1ccccc1)[C@H](O)CN1C[C@H]2CCCC[C@H]2C[C@H]1C(=O)NC(C)(C)C: 52.9%
CC(C)NCC(O)c1cc(O)cc(O)c1 (stereo not drawn): -31.2%

Set 2
Target: Prothrombin, mature alpha-thrombin (F2, Homo sapiens, UniProt P00734)
Method: aptamer microarray, sandwich
Form: DNA with 2'F-ANA
Sample: in vitro
Concentration: 200 nM
Notes: whole 15-mer aptamer, many near background
With: Cy3 exosite-II aptamer, 400 nM
Reading: higher = stronger binding
Endpoint: mean fluorescence intensity
Sequence: GGTTGGTGTGGTTGG
2'F-ANA at 2 5 6 7 13 14 15: 53.4 a.u.
2'F-ANA at 2 3 4 5 6 8 9 11 13 14: 50.9 a.u.
2'F-ANA at 2 4 9 10 11 12 13 14 15: 151 a.u.
2'F-ANA at 2 4 6 7 8 11 12 15: 402 a.u.
2'F-ANA at 2 3 4 5 6 12 13 15: 119 a.u.
2'F-ANA at 4 6 9 12 13 15: 288 a.u.
2'F-ANA at 2 3 4 5 7 10: 73 a.u.
2'F-ANA at 2 4 6 11 12 13 15: 277 a.u.

Set 3
Compound: Cc1nccc(COC(=O)N2C[C@@H]3[C@@H](CNC(=O)c4ccc5[nH]nnc5c4)[C@@H]3C2)n1
Method: competition with immobilised ligand
Concentration: 1 µM
Endpoint: remaining binding
Non-receptor tyrosine-protein kinase TNK1 (TNK1, Homo sapiens, UniProt Q13470); cell-free assay: 66%
SNF-related serine/threonine-protein kinase (SNRK, Homo sapiens, UniProt Q9NRH2); cell-free assay: 98%
Mast/stem cell growth factor receptor Kit (KIT, Homo sapiens, UniProt P10721); cell-free assay: 89%
Mitogen-activated protein kinase kinase kinase 14 (MAP3K14, Homo sapiens, UniProt Q99558); cell-free assay: 66%
Dual specificity mitogen-activated protein kinase kinase 7 (MAP2K7, Homo sapiens, UniProt O14733); cell-free assay: 100%
Fibroblast growth factor receptor 4 (FGFR4, Homo sapiens, UniProt P22455); cell-free assay: 81%
Dual specificity tyrosine-phosphorylation-regulated kinase 1A (DYRK1A, Homo sapiens, UniProt Q13627); cell-free assay: 81%
Serine/threonine-protein kinase ICK (CILK1, Homo sapiens, UniProt Q9UPZ9); binding: 100%
Citron Rho-interacting kinase (CIT, Homo sapiens, UniProt O14578); cell-free assay: 100%
Homeodomain-interacting protein kinase 2 (HIPK2, Homo sapiens, UniProt Q9H2X6); cell-free assay: 81%
Epithelial discoidin domain-containing receptor 1 (DDR1, Homo sapiens, UniProt Q08345); cell-free assay: 100%
Ribosomal protein S6 kinase alpha-4, C-terminal kinase domain (RPS6KA4, Homo sapiens, UniProt O75676); cell-free assay: 90%
Serine/threonine-protein kinase 3 (STK3, Homo sapiens, UniProt Q13188); cell-free assay: 97%
Serine/threonine-protein kinase Nek10 (NEK10, Homo sapiens, UniProt Q6ZWH5); cell-free assay: 92%
Serine/threonine-protein kinase PAK 2 (PAK2, Homo sapiens, UniProt Q13177); cell-free assay: 100%
Mast/stem cell growth factor receptor Kit (KIT, Homo sapiens, UniProt P10721, T670I/V559D); cell-free assay: 95%

Set 4
Cell line: A-375
Concentration: 100 µM
Time: 36 h
Endpoint: viability
CC(=O)OCC(=O)[C@@]1(O)CC[C@H]2[C@@H]3CCC4=CC(=O)C=C[C@]4(C)[C@H]3[C@@H](O)C[C@@]21C: 121%
CC(=O)Oc1ccc(C(c2ccc(OC(C)=O)cc2)c2ccccn2)cc1: 1.14%
CN(N=O)C(=O)N[C@@H](C=O)[C@@H](O)[C@H](O)[C@H](O)CO: 95.6%

Set 5
Cell line: mouse MPNST tumor cells
Method: high-content nuclear imaging
Item: cell number
Concentration: 10 µM
Time: 12 h
Notes: mean of 2 replicates
Baseline: plate mean
Reading: higher = more cells
Endpoint: nuclei count
Cc1cc(C(=O)Nc2cccc(C(=O)Nc3cccc(C(F)(F)F)c3)c2)on1: 1.02 z-score
O=S(=O)(Cc1ccccc1)Nc1ccc(-c2ccc3c(cnn3-c3ccc(F)cc3)c2)c(C(F)(F)F)c1: 4.49 z-score
C[C@H]1Oc2cc(cnc2N)-c2c(nn(C)c2C#N)CN(C)C(=O)c2ccc(F)cc21: 2.93 z-score

Single results of other studies
COc1cc(=O)n(C)cc1C(=O)Nc1cc(C)nc2ccccc12 — remaining compound (human, microsomes or S9; 2 µM, 0.5 h): > 99%
CC(C)(C)c1cnc(CSc2cnc(NC(=O)C3CCN(CCCCCSc4cccc5c4CN(C4CCC(=O)NC4=O)C5=O)CC3)s2)o1 (stereo not drawn) — tumour weight (NSG mouse, HuT78 xenograft; dose not given, end of study): 0.219 g and 0.325 g and 0.338 g and 0.471 g and 0.379 g
COc1cc(=O)n(C)cc1C(=O)N1CCC(n2cc(-c3ccccc3)nn2)C1 (stereo not drawn) — remaining compound (human, microsomes or S9; 2 µM, 0.5 h): 82.9%
CN(C(=O)c1ccn2ncc(-c3ccc(C(N)=O)cc3)c2c1)c1ccc(C#N)cn1 — faecal oocyst shedding (Cryptosporidium parvum; qPCR; IFN-gamma knockout mouse; intravenous, 1 mg/kg): 6.9 log oocysts/g faeces
CC(C)n1cnc(-c2ccc(F)cc2)c1-c1ncc(C(=O)Nc2ccc(N3CCN(C)CC3)cc2)[nH]1 — grade 5 soft tissue infection (human, idiopathic pulmonary fibrosis; 60 mg once daily, trial, treatment-emergent): 0%
COc1cc(C(=O)OCCCN2CCCN(CCCOC(=O)c3cc(OC)c(OC)c(OC)c3)CC2)cc(OC)c1OC — licking duration (female mouse, formalin pain; intrathecal, 100 nmol, 0 to 10 min): 199 s and 233 s and 260 s and 221 s

Repeated from above (set 1):
O=C1c2c(O)ccc(O)c2C(=O)c2c(NCCNCCO)ccc(NCCNCCO)c21: 44.7%
CC(C)NCC(O)c1cc(O)cc(O)c1 (stereo not drawn): -31.2%
Cc1c(O)cccc1C(=O)N[C@@H](CSc1ccccc1)[C@H](O)CN1C[C@H]2CCCC[C@H]2C[C@H]1C(=O)NC(C)(C)C: 52.9%
